Results collected from several papers.
Protocols differ between the studies behind these lines.
Organism: Mycobacterium tuberculosis

The MIC of Cc1ccc(-n2nnc3c2CCC2(C=Cc4cc(C)ccc4O2)C3)cc1 (centres unmarked) is reported as over 25 µg/mL (MABA; H37Rv; 7 days).
For COc1cc(OC)cc(-c2ccc(C(=O)NCc3c(C)cc(C4CC4)[nH]c3=O)cc2)c1, the MIC was over 20 µg/mL (microbial growth, resazurin; H37RV).
O=C(c1cc2c(F)cc(F)cc2[nH]1)N1CCN(C(=O)C23CC4CC(CC(C4)C2)C3)CC1 has an MIC of over 32 µg/mL (microplate alamarBlue; H37Rv).
For COc1cc(OC)cc(-c2ccc(C(=O)NCc3c(C)c4ccccc4[nH]c3=O)cc2)c1, the MIC was over 50 µg/mL (microbial growth, resazurin; H37RV).
With Nc1ccc(C(=O)O)c(O)c1 the MIC was 81.6 µM (microplate Alamar Blue; H37Rv).
The MIC of O=c1c2ccccc2[se]n1-c1ccccc1F is reported as 25 µg/mL (microbial growth, resazurin; H37RV).
CCCCNc1oc2c(c1-c1ccc([N+](=O)[O-])o1)C(=O)c1ccccc1C2=O has an MIC of 84 µM (resazurin microplate; H37Rv; 7 days + 24 h).
For CCCCCCCCCCCC(=O)NS(=O)(=O)OC[C@H]1O[C@@H](n2cnc3c(N)ncnc32)[C@H](O)[C@@H]1O, the MIC was 3.13 to 25 µM (MDR and XDR strains).
With Cc1c(Cc2ccc(F)cc2F)c(=O)n2c([nH]c3ccccc32)c1C#N the MIC was 0.25 µg/mL (microbial growth, resazurin; H37RV).
CC(C)c1ccc(-c2ccnc(CN3CC[Si](C)(C)CC3)c2)cc1 gave an MIC of 0.5 to 1 µg/mL (microbial growth, resazurin; H37RV).
COc1ccc(-n2nnc3c2CCC2(C=Cc4cc(Cl)ccc4O2)C3)cc1 (centres unmarked) has an MIC of 1.56 µg/mL (microbial growth, resazurin; H37RV; 7 days).
With Cc1[nH]c(=O)c(CNC(=O)c2cn[nH]c2)c2c1CCCC2 the MIC was 14 µg/mL (microbial growth, resazurin; H37RV).
With COc1cccc2[nH]c(C(=O)NC(C)C34CC5CC(CC(C5)C3)C4)cc12 (centres unmarked) the MIC was 1 µg/mL (microplate alamarBlue; H37Rv).
The MIC of Cn1ncc2cc(-c3c(NC(C)(C)C)oc4c3C(=O)c3ccccc3C4=O)ccc21 is reported as over 147 µM (resazurin microplate; H37Rv; 7 days + 24 h).
CC[C@@H](CO)NCCN[C@@H](CC)CO has an MIC of 1.56 µg/mL (microbial growth, resazurin; H37RV; 7 days).
COc1cc(OC)cc(C(=O)NCc2c(C)c3c([nH]c2=O)CCCC3)c1 has an MIC of 24.1 µg/mL (microbial growth, resazurin; H37RV).
CC(NC(=O)c1cc2c(F)cc(F)cc2[nH]1)C12CC3CC(CC(C3)C1)C2 (centres unmarked) has an MIC of 0.25 µg/mL (microplate alamarBlue; H37Rv).
With CCc1cc(CC)c(CNC(=O)c2ccc([N+](=O)[O-])o2)c(=O)[nH]1 the MIC was 19.8 µg/mL (microbial growth, resazurin; H37RV).
The MIC of CO[C@H]1/C=C/O[C@@]2(C)Oc3c(C)c(O)c4c(O)c(c(/C=N/N5CCN(C)CC5)c(O)c4c3C2=O)NC(=O)/C(C)=C\C=C\[C@H](C)[C@H](O)[C@@H](C)[C@@H](O)[C@@H](C)[C@H](OC(C)=O)[C@@H]1C is reported as 0.01 µM (microbial growth, resazurin; H37RV).
CCc1ccc(NC(=O)CN2CCN(c3nc4ncccc4cc3C#N)CC2)cc1 gave an MIC of 62.4 µM (microplate Alamar Blue; H37Rv).
With CC(C)(C)Nc1oc2c(c1-c1ccc(Cl)cc1)C(=O)c1ccccc1C2=O the MIC was over 147 µM (resazurin microplate; H37Rv; 7 days + 24 h).
CC(C)(C)n1[se]c2ccccc2c1=O has an MIC of 25 µg/mL (microbial growth, resazurin; H37RV).
The MIC of Cc1c(CCc2ccc(Cl)cc2)c(=O)n2c([nH]c3ccccc32)c1C#N is reported as over 128 µg/mL (microbial growth, resazurin; H37RV).
The MIC of CC(=O)NCN1N=C(C)C(=NNn2c(-c3ccccc3)nc3ccccc3c2=O)C1=O is reported as 14.3 µM (microplate alamar blue; H37Rv).
With Cc1c(CNC(=O)c2cnc(C(F)(F)F)nc2)c(=O)[nH]c2ccccc12 the MIC was over 50 µg/mL (microbial growth, resazurin; H37RV).
N#Cc1cc2cccnc2nc1N1CCN(C(=O)CNc2ccc(Br)cc2)CC1 gave an MIC of 55.4 µM (microplate Alamar Blue; H37Rv).
With CC(NC(=O)c1cc2cc(Cl)ccc2[nH]1)C12CC3CC(CC(C3)C1)C2 (centres unmarked) the MIC was 1 µg/mL (microplate alamarBlue; H37Rv).
Cc1c(Cc2cccnc2)c(=O)n2c([nH]c3ccccc32)c1C#N has an MIC of 4 µg/mL (microbial growth, resazurin; H37RV).
With N#Cc1cc2cccnc2nc1N1CCN(CC(=O)Nc2ccc([N+](=O)[O-])cc2)CC1 the MIC was 59.8 µM (microplate Alamar Blue; H37Rv).
COc1cccc(Nc2ccc3nonc3c2N)c1 has an MIC of 250 µM (microbial growth; H37RV).
For O=C(NC12CC3CC(CC(O)(C3)C1)C2)c1cc2ccc(Br)cc2[nH]1, the MIC was 2.57 µM (H37Rv).
The MIC of O=C(OCc1ccccc1)[C@@H]1COC(c2ccncc2)=N1 is reported as over 50 µM (H37Rv; 168 h).
For Cc1ccc(NC(=O)CN2CCN(c3nc4ncccc4cc3C#N)CC2)cc1C, the MIC was 62.4 µM (microplate Alamar Blue; H37Rv).
CO[C@H]1/C=C/O[C@@]2(C)Oc3c(C)c(O)c4c(O)c(c(/C=N/N5CCN(C)CC5)c(O)c4c3C2=O)NC(=O)/C(C)=C\C=C\[C@H](C)[C@H](O)[C@@H](C)[C@@H](O)[C@@H](C)[C@H](OC(C)=O)[C@@H]1C has an MIC of 0.1 µM (H37Rv, replicating).
N#Cc1cc2cccnc2nc1N1CCN(C(=O)CNc2ccc(Cl)cc2Cl)CC1 has an MIC of 113 µM (microplate Alamar Blue; H37Rv).
Clc1ccc(-n2nnc3c2CCC2(C=Cc4cc(Cl)ccc4O2)C3)cc1 (centres unmarked) gave an MIC of 25 µg/mL (microbial growth, resazurin; H37RV; 7 days).
For Cc1c2c([nH]c(=O)c1CNC(=O)c1ccc(Cl)nc1)CCCC2, the MIC was over 50 µg/mL (microbial growth, resazurin; H37RV).
Cc1cc2c(cc1Cl)C=CC1(CCc3c(nnn3-c3ccccc3)C1)O2 (centres unmarked) has an MIC of 3.12 µg/mL (microbial growth, resazurin; H37RV; 7 days).
COc1cccc(Cc2c(C)c(C#N)c3[nH]c4ccccc4n3c2=O)c1 has an MIC of over 128 µg/mL (microbial growth, resazurin; H37RV).
The MIC of Cn1ncc2cc(-c3c(NC4CCCCC4)oc4c3C(=O)c3ccccc3C4=O)ccc21 is reported as 150 µM (resazurin microplate; H37Rv; 7 days + 24 h).
The MIC of O=C(OCc1ccccc1)c1csc(-c2ccccc2)n1 is reported as 2.5 µg/mL (drug-sensitive clinical strain 2, 7H9 glucose glycerol BSA medium).
N#Cc1cc2cccnc2nc1N1CCNCC1 gave an MIC of 104 µM (microplate Alamar Blue; H37Rv).
Cc1[nH]c(=O)c(CNC(=O)c2ccc(F)nc2)c2c1CCCC2 has an MIC of 1.6 µg/mL (microbial growth, resazurin; H37RV).
For COc1ccc(-c2c(NC(C)(C)C)oc3c2C(=O)c2ccccc2C3=O)cc1OC, the MIC was over 147 µM (resazurin microplate; H37Rv; 7 days + 24 h).
Cc1c(C)c(=O)n2c([nH]c3ccccc32)c1C#N gave an MIC of over 128 µg/mL (microbial growth, resazurin; H37RV).
For C=CCn1[se]c2ccccc2c1=O, the MIC was 12.5 µg/mL (microbial growth, resazurin; H37RV).
The MIC of N#Cc1cc2cccnc2nc1N1CCN(C(=O)CNc2cccc(Cl)c2)CC1 is reported as 123 µM (microplate Alamar Blue; H37Rv).

Some of these lines once more:
COc1cc(OC)cc(C(=O)NCc2c(C)c3c([nH]c2=O)CCCC3)c1 has an MIC of 24.1 µg/mL (microbial growth, resazurin; H37RV).
CC(NC(=O)c1cc2c(F)cc(F)cc2[nH]1)C12CC3CC(CC(C3)C1)C2 (centres unmarked) has an MIC of 0.25 µg/mL (microplate alamarBlue; H37Rv).
With CCc1cc(CC)c(CNC(=O)c2ccc([N+](=O)[O-])o2)c(=O)[nH]1 the MIC was 19.8 µg/mL (microbial growth, resazurin; H37RV).
The MIC of CO[C@H]1/C=C/O[C@@]2(C)Oc3c(C)c(O)c4c(O)c(c(/C=N/N5CCN(C)CC5)c(O)c4c3C2=O)NC(=O)/C(C)=C\C=C\[C@H](C)[C@H](O)[C@@H](C)[C@@H](O)[C@@H](C)[C@H](OC(C)=O)[C@@H]1C is reported as 0.01 µM (microbial growth, resazurin; H37RV).
